Measurements from different studies.
Protocols differ between the studies behind these lines. ± gives the spread as reported.

SMILES | organism | test | system | conditions | how to read | endpoint | value
COc1ccc(C(=O)N(O)Cc2ccc(F)cc2)cc1 | Arabidopsis thaliana | – | agar | 100 µM | – | growth | toxic
Cc1cc(CCC(=O)OCC(C)(C)C2OCC3(CO2)COC(C(C)(C)COC(=O)CCc2cc(C)c(O)c(C(C)(C)C)c2)OC3)cc(C(C)(C)C)c1O (stereo not shown) | Cyprinus carpio | everted gut sac | intestine | concentration not given, 24 h, 23 °C | – | concentration in serosal solution | < 100 ng/mL
OC1(C(F)(F)F)CCN(c2nc(Nc3ccnc(C(F)(F)F)c3)nc(-c3cccc(C(F)(F)F)n3)n2)C1 (stereo not shown) | Salmonella typhimurium, Escherichia coli | – | TA98, TA100, TA1535, TA1537, WP2uvrA | up to 50 µg/plate, with and without S9 | – | cytotoxicity | not toxic
Nc1ccccc1C(=O)NS(=O)(=O)OC[C@H]1O[C@@H](n2cnc3c(N)ncnc32)[C@H](O)[C@@H]1O | Pseudomonas aeruginosa | LC-MS/MS of lysate | PA14, LB medium | 1000 µM, 30 min | relative to: extracellular concentration | accumulation | 2 to 3%
COc1ccc(C(=O)N(O)Cc2ccccc2)cc1 | Arabidopsis thaliana | – | agar | 100 µM | – | growth | toxic
Nc1ccccc1C(=O)NS(=O)(=O)NC[C@H]1O[C@@H](n2cnc3c(N)ncnc32)[C@H](O)[C@@H]1O | Pseudomonas aeruginosa | LC-MS/MS of lysate | PA14, LB medium | 1000 µM, 30 min | relative to: extracellular concentration | accumulation | 2 to 3%
C=CC(=O)Oc1c(C(C)c2cc(C(C)(C)CC)cc(C(C)(C)CC)c2O)cc(C(C)(C)CC)cc1C(C)(C)CC (stereo not shown) | Cyprinus carpio | everted gut sac | intestine | concentration not given, 24 h, 23 °C | – | concentration in serosal solution | < 60 ng/mL
CC[C@H](C)[C@@H]1NC(=O)[C@H](CCCNC(=N)N)NC(=O)[C@H](CC(=O)O)NC(=O)[C@H](CC(C)C)NC(=O)[C@H](CCCCN)NC(=O)[C@H](CC(C)C)NC(=O)CNC(=O)[C@H](Cc2ccccc2)NC(=O)[C@@H](NC(=O)CNC(=O)[C@H](CCCCN)NC(=O)[C@H](CO)NC(=O)[C@H](CC(C)C)NC(=O)CN)CSSC[C@@H](C(=O)O)NC(=O)CNC(=O)[C@H](CC(C)C)NC(=O)CNC(=O)[C@H](CO)NC(=O)[C@H](CCSC)NC(=O)[C@H](CO)NC(=O)CNC1=O | Pseudomonas aeruginosa | LDH release | A549, PA14 wild type | concentration not given | relative to: PA14 without compound | increase in cytotoxicity | 76.6 ± 17%
Cc1c(Cc2cc(C(C)(C)C)c(O)c(C(C)(C)C)c2)c(C)c(Cc2cc(C(C)(C)C)c(O)c(C(C)(C)C)c2)c(C)c1Cc1cc(C(C)(C)C)c(O)c(C(C)(C)C)c1 | Cyprinus carpio | everted gut sac | intestine | concentration not given, 24 h, 23 °C | – | concentration in serosal solution | < 80 ng/mL
O=C1C=C(Br)/C(=C/Br)O1 | Pseudomonas aeruginosa | OD600 | – | reporter strain | – | toxic concentration | ≥ 100 µM

Excerpt of the above:
SMILES | organism | test | system | conditions | how to read | endpoint | value
Cc1cc(CCC(=O)OCC(C)(C)C2OCC3(CO2)COC(C(C)(C)COC(=O)CCc2cc(C)c(O)c(C(C)(C)C)c2)OC3)cc(C(C)(C)C)c1O (stereo not shown) | Cyprinus carpio | everted gut sac | intestine | concentration not given, 24 h, 23 °C | – | concentration in serosal solution | < 100 ng/mL
